Published values pooled from the literature.
Every numbered part comes from another study and shows a few of its results, in no order.

Block 1
Target: Histone acetyltransferase KAT6A, winged helix 2, GST fusion (KAT6A, Homo sapiens, UniProt Q92794, residues 85-181)
Technique: protein binding microarray
Molecule type: double-stranded DNA, one strand shown
Medium: in vitro
Tested at: not given
Setting: 8-mer, flanks averaged, mean of 2 arrays, mostly near background
Reference: not given
Direction: higher = stronger binding
Target sequence (chain): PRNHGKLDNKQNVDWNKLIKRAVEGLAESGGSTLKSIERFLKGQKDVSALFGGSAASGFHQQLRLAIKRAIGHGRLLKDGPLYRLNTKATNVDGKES
Oligonucleotide	E-score
ACCGGATA	-0.208
AAAGGCGT	-0.0784
CATCATAC	0.143
AGAGTGAA	0.14
AGATTAAG	-0.0514
AACGAACC	0.0963
GGGTGGCA	0.135
TCTTGCCA	0.012
TGCAAACA	-0.0791
AAGGAAGG	-0.123
CAGCAAAA	0.0483
CTACTCTA	-0.103
CACTATTC	-0.0756
CATCCGAG	0.0115
AGCTTGGG	0.14
ATACGAGG	-0.153
AGGTAGAA	-0.129
ATTTTACA	-0.151
CCAATGAG	-0.0953
AATTCAGC	-0.00656

Block 2
Target: Prothrombin, mature alpha-thrombin (F2, Homo sapiens, UniProt P00734)
Technique: aptamer microarray, sandwich
Molecule type: DNA with 2'F-ANA
Medium: in vitro
Tested at: 200 nM
Setting: whole 15-mer aptamer, many near background
Added: Cy3 exosite-II aptamer, 400 nM
Direction: higher = stronger binding
Oligonucleotide: GGTTGGTGTGGTTGG
Modification	mean fluorescence intensity
2'F-ANA at 6 10 11 14	116 a.u.
2'F-ANA at 1 6 7 9 11	186 a.u.
2'F-ANA at 1 3 4 5 9 11 14	46.5 a.u.
2'F-ANA at 1 2 3 4 5 8 12 13 14	47.4 a.u.
2'F-ANA at 2 3 4 6 8 10 12 13 15	200 a.u.
2'F-ANA at 1 7 10 11 12 15	72 a.u.
2'F-ANA at 1 2 5 7 11 12 13 14 15	62.9 a.u.
2'F-ANA at 3 4 5 6 9 11 13 14 15	53.8 a.u.
2'F-ANA at 1 5 6 7 8 9 12	115 a.u.
2'F-ANA at 1 2 6 7 9 12 14 15	74.9 a.u.
2'F-ANA at 1 3 8 9 10 11 15	78.9 a.u.
2'F-ANA at 6 7 8 9 10 14 15	117 a.u.
2'F-ANA at 1 2 3 4 5 9 10 11 12 15	50 a.u.
2'F-ANA at 1 2 3 4 5 6 7 10 11 12	53.2 a.u.
2'F-ANA at 2 3 4 5 11 12 13	106 a.u.
2'F-ANA at 3 5 6 9 12 15	199 a.u.
2'F-ANA at 2 6 7 8 9 14	147 a.u.
2'F-ANA at 1 4 5 6 7 8 15	121 a.u.
2'F-ANA at 1 6 8 9 11 13 14 15	52.6 a.u.
2'F-ANA at 1 7 12 13 14	120 a.u.
2'F-ANA at 3 5 6 8 9 10 14	52.6 a.u.

Block 3
Target: RNA binding protein fox-1 homolog 2, RRM domain, GST-SBP tag (RBFOX2, Homo sapiens, UniProt O43251-10, residues 100-194)
Technique: RNA Bind-n-Seq
Molecule type: RNA
Medium: in vitro
Tested at: 365 nM
Setting: natural RNA segment, single round, ends assumed
Reference: no-protein control
Direction: higher = stronger binding
Shared flanks, not repeated: GGGAGUUCUACAGUCCGACGAUC … UGGAAUUCUCGGGUGCCAA
Target sequence (chain): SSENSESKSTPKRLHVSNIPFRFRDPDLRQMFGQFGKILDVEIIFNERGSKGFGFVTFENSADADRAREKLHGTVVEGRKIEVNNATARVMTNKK
Oligonucleotide	RBNS enrichment (R)
UAUAAAGAUGGUAGUAAGUCAAUACAUUUAUCCUGAUCUGUGUAUUAUUUGUUCACAAAUUCAAGAAGCUUAAAGGUCGUAAAUAUCAGUAUCUCAUAAGGUAAACCAAU	0.488
AGGGACUUGGGUGGGUACUUGGGUGAGGAUCCCUGAAGGCCUUCAACCCGAGAAAACAAACCCAGGUUGGCGACUGCAACAGGAACUUGGAGUGGAGAGGAAAAGCAUCA	1.55
CCAGUGUGCUCGCCAUGAGCUGGGUCAGGGCUGGGGAGUUGUGCAGGCUGGGGUGACCCUUCCCCCAUCAUUGGGCCCCAACGGGCAUGUCUCCACCGAAUCCAUUUAGA	0.902
UUGUUUGUUUAUUAGAUGAAUUAUCCUAUUUCAGUACUUCAGCAAGAGAGAACCUAACUGUAUCUUGAGGUGGUAGUAAAACACAGAGGGCCAGUAACGGGUCGUAAUGA	0.494
AAAAAAACACUUCAACUCCCUCCCCCAUUUAGAUUAUUUAUUAACAUAUUUUAAAAAUCAGAUGAGUUCUAUAAAUAAUUUAGAGAAGUGAGAGUAUUUAUUUUUGGCAU	0.569
GGCCAUAGGGUGUCCUUGGGUACAUCCAGGAGUCUUCAUUGCUUCUGUUAUUACCCCGUCUCCUCUGCCAUUUUCUACAGCUUGCUGAGUUGUCAUUCCUUUGCAACAUU	0.469
GAAAGCUAACUUCUAACUUCCUUCCGCUGAGAUGUCUUCUGCUGCCUCAUUUGCAAGAUGUGCAAGCUUAAUGUCUUCUUCACCAUAAAGCAACAUGGAAAUAACCAUAG	0.328
UACAGGUGGAUAGGGAUGCAGGGGCAGCCUUUCCCCGGGAAUCUGACUGGUCCGCACAACACACCCACUGCUCAGUUUCCUGAGAAGAGAGAUCUCAAGACAUUUUAAUA	0.55

Block 4
Target: Fragile X messenger ribonucleoprotein 1, C-terminal low-complexity region (Fmr1, Mus musculus, UniProt P35922)
Technique: RNA Bind-n-Seq
Molecule type: RNA
Medium: in vitro
Tested at: 200 nM
Setting: whole 134-nt RNA, ends assumed
Added: 150 mM LiCl
Reference: input library
Direction: higher = stronger binding
All molecules: 7-deaza-guanosine replaces G
Shared flanks, not repeated: GGGAGUUCUACAGUCCGACGAUC … UGGAAUUCUCGGGUGUCAAGG
Oligonucleotide	log2 enrichment
CACAGACAACACGCACCCACACAGACACAGAGGGAAGGGGUUGGGAUGCGGACAGGGUGCACAGCAGGGCGGGGUAGGACCCCAGCCCCU	-1.55
AAGUCCUGUGCUACACAUCGUAUGUACCGAAUCGGGAAAAAGGGUGGGUUUUUGGGAAAGUAUUAUGUUACGCCGUUCGGAUCUGCACUU	-2.11
UUGUGGUAUUUUAUUUACUUAUUUUUUUAAAUCUUCCAUUACAGCCAUGCCUUUCUUGGACAUCCAGAAAAGGUUCGGCCUUAACAUAGA	1.69
UCAAGUCCUGUGCUACACAUCGUAUGUACCGAAUCGGUUGGGUUGGGGUUGGGGAAAGUAUUAUGUUACGCCGUUCGGAUCUGCACUUCC	-1.04
AAGUCCUGUGCUACACAUCGUAUGUACCGAAUCGGUUUGGAAAAAGGUUUUUUUGGAAAGUAUUAUGUUACGCCGUUCGGAUCUGCACUU	-2.68
UUGGGCUGCCCAUCACCGUGGCCCAUGUGGAUGGCCAAACCCACAUGUUAUUUGGCUCUGACCGGAUGGAGCUGCUGGCGCACCUGCUGG	-0.931
CACAGACAACACGCACCCACACAGACACAGACGGAAGGGGUUGGGAUGGGGACAGGGUGCACAGCAGGGCGGGGUAGGACCCCAGCCCCU	0.378
UCCUGUGCUACACAUCGUAUGUACCGAAUCGGGGUUUUUGGGGUUUUUUUGGGGUGGGGAAAGUAUUAUGUUACGCCGUUCGGAUCUGCA	-0.0777
